Measurements collected from several papers.
± marks the error that the study gave.
Sequence of UniProt P10275 (whole entry, looked up): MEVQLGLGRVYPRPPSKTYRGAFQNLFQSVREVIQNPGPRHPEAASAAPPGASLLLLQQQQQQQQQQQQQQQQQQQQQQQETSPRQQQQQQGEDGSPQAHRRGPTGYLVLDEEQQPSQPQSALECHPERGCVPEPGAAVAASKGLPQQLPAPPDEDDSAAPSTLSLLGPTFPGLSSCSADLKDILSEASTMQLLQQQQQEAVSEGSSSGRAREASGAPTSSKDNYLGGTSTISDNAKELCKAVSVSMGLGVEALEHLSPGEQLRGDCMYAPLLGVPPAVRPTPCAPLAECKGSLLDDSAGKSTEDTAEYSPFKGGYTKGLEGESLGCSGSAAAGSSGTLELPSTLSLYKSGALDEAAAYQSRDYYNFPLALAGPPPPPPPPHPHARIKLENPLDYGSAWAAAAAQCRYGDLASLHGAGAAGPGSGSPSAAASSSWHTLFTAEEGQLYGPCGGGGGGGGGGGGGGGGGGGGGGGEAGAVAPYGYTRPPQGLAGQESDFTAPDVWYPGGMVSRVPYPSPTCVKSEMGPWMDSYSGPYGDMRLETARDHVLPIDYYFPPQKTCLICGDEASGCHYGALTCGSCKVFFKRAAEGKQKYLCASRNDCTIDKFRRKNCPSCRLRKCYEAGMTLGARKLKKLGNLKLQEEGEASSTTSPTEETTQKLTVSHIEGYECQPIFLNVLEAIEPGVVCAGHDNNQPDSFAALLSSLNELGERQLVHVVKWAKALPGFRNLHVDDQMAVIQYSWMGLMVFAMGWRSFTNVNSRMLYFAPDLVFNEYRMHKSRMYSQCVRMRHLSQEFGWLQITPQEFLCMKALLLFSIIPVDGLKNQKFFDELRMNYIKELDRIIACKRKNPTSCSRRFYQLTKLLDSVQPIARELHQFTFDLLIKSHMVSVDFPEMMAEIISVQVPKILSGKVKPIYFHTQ
Sequence of UniProt O15357 (whole entry, looked up): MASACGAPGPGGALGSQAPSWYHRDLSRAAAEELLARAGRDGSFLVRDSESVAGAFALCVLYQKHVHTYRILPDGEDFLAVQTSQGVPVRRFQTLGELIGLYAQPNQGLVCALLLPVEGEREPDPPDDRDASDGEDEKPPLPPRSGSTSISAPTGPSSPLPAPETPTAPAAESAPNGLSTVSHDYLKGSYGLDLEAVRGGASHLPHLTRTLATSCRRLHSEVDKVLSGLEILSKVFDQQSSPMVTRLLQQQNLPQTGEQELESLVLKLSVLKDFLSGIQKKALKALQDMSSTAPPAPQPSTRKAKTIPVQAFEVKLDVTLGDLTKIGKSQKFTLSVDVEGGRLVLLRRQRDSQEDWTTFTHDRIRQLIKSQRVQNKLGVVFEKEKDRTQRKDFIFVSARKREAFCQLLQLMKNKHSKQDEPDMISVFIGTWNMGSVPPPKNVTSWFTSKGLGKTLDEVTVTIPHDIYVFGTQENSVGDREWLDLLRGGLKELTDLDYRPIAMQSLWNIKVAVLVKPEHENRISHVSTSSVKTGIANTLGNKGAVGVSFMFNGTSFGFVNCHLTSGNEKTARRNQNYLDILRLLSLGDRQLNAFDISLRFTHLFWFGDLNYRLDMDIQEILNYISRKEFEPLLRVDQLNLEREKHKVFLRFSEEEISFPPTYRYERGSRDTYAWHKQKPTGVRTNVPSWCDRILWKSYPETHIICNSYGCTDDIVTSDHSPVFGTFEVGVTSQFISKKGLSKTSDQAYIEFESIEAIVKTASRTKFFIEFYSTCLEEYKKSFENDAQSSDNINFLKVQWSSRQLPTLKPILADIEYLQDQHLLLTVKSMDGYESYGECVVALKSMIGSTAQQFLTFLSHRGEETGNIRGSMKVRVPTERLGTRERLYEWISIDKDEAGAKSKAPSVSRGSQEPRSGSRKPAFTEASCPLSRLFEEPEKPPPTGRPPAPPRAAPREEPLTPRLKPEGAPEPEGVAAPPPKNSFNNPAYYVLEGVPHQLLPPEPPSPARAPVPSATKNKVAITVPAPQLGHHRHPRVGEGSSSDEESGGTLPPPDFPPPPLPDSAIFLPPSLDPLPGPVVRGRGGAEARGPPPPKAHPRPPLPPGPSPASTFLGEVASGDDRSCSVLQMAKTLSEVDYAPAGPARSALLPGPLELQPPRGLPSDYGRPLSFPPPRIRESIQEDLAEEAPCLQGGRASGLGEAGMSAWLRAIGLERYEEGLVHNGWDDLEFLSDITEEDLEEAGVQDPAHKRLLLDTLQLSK
Sequence of UniProt P51532 (whole entry, looked up): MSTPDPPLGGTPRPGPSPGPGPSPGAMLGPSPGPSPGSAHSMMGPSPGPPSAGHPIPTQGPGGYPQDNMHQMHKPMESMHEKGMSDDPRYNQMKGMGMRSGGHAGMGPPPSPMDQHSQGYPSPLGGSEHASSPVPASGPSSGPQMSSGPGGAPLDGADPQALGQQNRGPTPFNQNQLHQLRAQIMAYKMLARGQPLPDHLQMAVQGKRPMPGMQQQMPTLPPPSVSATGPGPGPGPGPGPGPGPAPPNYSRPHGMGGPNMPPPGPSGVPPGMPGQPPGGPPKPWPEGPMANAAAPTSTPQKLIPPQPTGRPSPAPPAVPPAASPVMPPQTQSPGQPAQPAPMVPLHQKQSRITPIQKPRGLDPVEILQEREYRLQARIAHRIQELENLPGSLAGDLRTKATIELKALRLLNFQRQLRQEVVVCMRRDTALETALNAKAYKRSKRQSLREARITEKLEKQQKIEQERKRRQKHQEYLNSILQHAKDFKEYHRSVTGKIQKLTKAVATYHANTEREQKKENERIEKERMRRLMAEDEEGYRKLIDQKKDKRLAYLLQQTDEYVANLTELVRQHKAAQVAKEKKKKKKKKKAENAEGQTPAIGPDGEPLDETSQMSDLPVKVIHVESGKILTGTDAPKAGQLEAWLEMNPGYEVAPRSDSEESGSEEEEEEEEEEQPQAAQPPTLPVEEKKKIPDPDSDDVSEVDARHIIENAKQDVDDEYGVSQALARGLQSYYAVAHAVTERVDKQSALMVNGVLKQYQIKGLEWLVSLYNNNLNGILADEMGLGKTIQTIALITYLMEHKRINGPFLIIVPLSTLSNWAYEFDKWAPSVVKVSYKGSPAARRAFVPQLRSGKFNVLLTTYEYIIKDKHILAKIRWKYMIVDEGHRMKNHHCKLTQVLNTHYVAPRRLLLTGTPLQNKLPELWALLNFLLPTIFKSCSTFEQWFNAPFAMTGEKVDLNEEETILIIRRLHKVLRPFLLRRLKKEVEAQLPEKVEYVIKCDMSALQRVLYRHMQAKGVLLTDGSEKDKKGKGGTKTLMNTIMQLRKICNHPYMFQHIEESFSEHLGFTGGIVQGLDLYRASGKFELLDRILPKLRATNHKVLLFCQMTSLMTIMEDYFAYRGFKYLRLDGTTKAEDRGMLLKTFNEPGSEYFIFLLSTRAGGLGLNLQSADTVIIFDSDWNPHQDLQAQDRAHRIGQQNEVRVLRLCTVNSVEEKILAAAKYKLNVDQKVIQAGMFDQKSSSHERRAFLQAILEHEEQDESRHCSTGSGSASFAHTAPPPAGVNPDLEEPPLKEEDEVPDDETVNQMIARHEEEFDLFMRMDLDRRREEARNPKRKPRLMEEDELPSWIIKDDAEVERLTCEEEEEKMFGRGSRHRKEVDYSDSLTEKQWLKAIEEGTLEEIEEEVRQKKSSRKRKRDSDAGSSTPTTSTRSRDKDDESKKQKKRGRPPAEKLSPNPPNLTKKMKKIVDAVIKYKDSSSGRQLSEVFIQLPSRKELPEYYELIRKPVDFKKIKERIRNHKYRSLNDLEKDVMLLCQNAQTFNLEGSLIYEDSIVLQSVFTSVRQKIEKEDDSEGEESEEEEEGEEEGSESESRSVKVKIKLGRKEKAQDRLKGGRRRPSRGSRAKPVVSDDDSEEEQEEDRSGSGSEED
Sequence of UniProt P50750 (whole entry, looked up): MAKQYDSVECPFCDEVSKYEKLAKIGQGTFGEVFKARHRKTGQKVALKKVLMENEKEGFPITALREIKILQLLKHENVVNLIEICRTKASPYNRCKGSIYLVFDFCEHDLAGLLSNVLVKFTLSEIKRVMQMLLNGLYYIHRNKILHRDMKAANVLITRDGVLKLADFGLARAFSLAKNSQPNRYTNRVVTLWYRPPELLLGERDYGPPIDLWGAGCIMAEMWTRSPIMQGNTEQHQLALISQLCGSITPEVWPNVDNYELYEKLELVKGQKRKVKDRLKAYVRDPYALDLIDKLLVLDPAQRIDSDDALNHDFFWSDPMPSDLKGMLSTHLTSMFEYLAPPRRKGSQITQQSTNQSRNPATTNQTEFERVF

| Structure (SMILES) | tested on | assay | test system | conditions | measurement | result |
| --- | --- | --- | --- | --- | --- | --- |
| CC1(C)NC(N)=Nc2nc3ccc(Cl)cc3n21 | THP-1-derived macrophages |  |  | 72 h, max 1% DMSO | CC50 | > 100 µM |
| C[C@@H](Oc1cncc(-c2cnc(N)nc2)c1)c1c(Cl)ccc(F)c1Cl | Phosphatidylinositol 3,4,5-trisphosphate 5-phosphatase 2, phosphatase-C2 domains (INPPL1, Homo sapiens, UniProt O15357) | enzyme activity, inhibitor |  |  | IC50 | > 800 µM |
| O=c1cc(-c2ccc(O)cc2)oc2c1ccc1occc12 | Cyclin-dependent kinase 9, with cyclin K (CDK9, Homo sapiens, UniProt P50750) | inhibitor |  |  | IC50 | 1.86 ± 0.46 µM |
| COc1cc(/C=N/NC(=O)c2cc3c(ccc4ccccc43)o2)cc(I)c1O | Androgen receptor (AR, Homo sapiens, UniProt P10275) | inhibitor |  |  | IC50 | 50 to 100 µM |
| Nc1nnc(-c2ccccc2O)cc1N1CC2CCC(C1)N2c1ccnc(C#CCCN2CCCCCC2)c1 | SMARCA4 (Homo sapiens, UniProt P51532) | protein degradation, degrader, immunofluorescence | SW1573 | 20 h | Dmax | ~95% |
| N=C(N)Nc1nc2cc(C(F)(F)F)ccc2[nH]1 | THP-1-derived macrophages |  |  | 72 h, max 1% DMSO | CC50 | > 100 µM |

Repeated from above:
| Structure (SMILES) | tested on | assay | test system | conditions | measurement | result |
| --- | --- | --- | --- | --- | --- | --- |
| COc1cc(/C=N/NC(=O)c2cc3c(ccc4ccccc43)o2)cc(I)c1O | Androgen receptor (AR, Homo sapiens, UniProt P10275) | inhibitor |  |  | IC50 | 50 to 100 µM |
